Results gathered from unrelated publications.
Each line is one published result; not all experiments were run side by side. ± marks the error that the study gave.

SMILES | assay | test system | setting | fu
COc1ccc2cc(CCC[18F])ccc2c1 | gel filtration | human plasma | 60 min, 37 °C | 0.215
COc1ccc([C@@H]2Sc3ccccc3N(CCN(C)C)C(=O)[C@@H]2OC(C)=O)cc1 | equilibrium dialysis | human plasma | 2 µM, 20 h, pH 7.4, 37 °C | 0.299 ± 0.027
Cc1cc(C)c(CNC(=O)c2cc(Cl)c3c(c2C)O[C@@](C)([C@H]2CC[C@H](N(C)C)CC2)O3)c(=O)[nH]1 | ultracentrifugation | 0.1% human alpha-1-acid glycoprotein | 1000 ng/mL, 160 min | 0.088
CC#Cc1cncc(-c2ccc3c(c2)[C@@]2(N=C(C)C(N)=N2)[C@]2(CC[C@H](OC)CC2)C3)c1 | unbound fraction | rat brain slices | 1 µM, 5 h, artificial interstitial fluid | 0.045
Cc1cnc(N2CC3(CCOCC3)C2)c(C(=O)Nc2ccc(C(=O)N3CCc4cc(C(=O)Nc5c(C)cccc5F)sc4-c4ccccc43)cc2)c1 | – | human plasma | – | 0.01
Cc1nc2ccc(OCc3ccc(C(F)(F)F)cc3)cc2[nH]1 | rapid equilibrium dialysis | mouse brain homogenate | 2 µM, 4 h, 37 °C | 0.0375
C/C(=N\c1ccc(O)cc1)c1cc2ccccc2n1C | ultrafiltration | rat plasma | 200 ng/mL, 1 h, 37 °C | 0.007
CC(=O)N1CCN(c2ccc(OCC3COC(Cn4ccnc4)(c4ccc(Cl)cc4Cl)O3)cc2)CC1 (stereo not drawn) | equilibrium dialysis | plasma, mouse, CD-1, pooled | – | 0.0076
OCc1nc2ccc(NCc3ccc(C(F)(F)F)cc3)cc2[nH]1 | rapid equilibrium dialysis | mouse plasma | 2 µM, 4 h, 37 °C | 0.107

Excerpt of the above:
SMILES | assay | test system | setting | fu
OCc1nc2ccc(NCc3ccc(C(F)(F)F)cc3)cc2[nH]1 | rapid equilibrium dialysis | mouse plasma | 2 µM, 4 h, 37 °C | 0.107
